Assay results from different studies.
Protocols differ between the studies behind these lines. ± gives the spread as reported. In brackets after ≈: the same amount, converted by molar mass.

CSC(=NNC(=O)c1ccc([N+](=O)[O-])cc1)SC — MIC (Mycobacterium; Wells): 6.2 µg/mL (≈ 21.7 µM)
CCCCCCCCC(=O)NCc1ccc(O)c(OC)c1 — IC50 (mouse mAb 1-D6; antibody binding, indirect competitive ELISA; added: coating antigen 3-OVA): > 4 µg/mL
COC(=O)C1=CO[C@@H](OC(C)=O)[C@@H]2C(Cn3cc(CCO)nn3)=CC[C@H]12 — viability (SK-N-SH; neuroprotection, MTT; 0.15 µM, 24 h, added: 250 µM H2O2): 77.1 ± 2.1%
CC[C@H](C)[C@@H]1NC(=O)CNC(=O)[C@@H]2Cc3c([nH]c4ccccc34)SC[C@H](NC(=O)CNC1=O)C(=O)N[C@@H](CC(=O)NCc1cn(CCNC(=O)OCCSSCCC(=O)NCc3cn(CC(=O)N[C@H](Cc4ccccc4)C(=O)N[C@H]4CSSC[C@@H](C(=O)N[C@H](C(=O)O)[C@@H](C)O)NC(=O)[C@H]([C@@H](C)O)NC(=O)[C@H](CCCCN)NC(=O)[C@@H](Cc5c[nH]c6ccccc56)NC(=O)[C@H](Cc5ccc(O)cc5)NC4=O)nn3)nn1)C(=O)N1C[C@H](O)C[C@H]1C(=O)N[C@@H]([C@@H](C)[C@@H](O)CO)C(=O)N2 — EC50 (AR-42J; cell growth or viability, MTS): 0.0042 µM
CCCO[C@H]1[C@H](O)[C@@H](N)[C@@H](O[C@H]2[C@H](O[C@@H]3O[C@H](CO)[C@@H](O[C@H]4O[C@@H](CN)[C@@H](O)[C@H](O)[C@H]4N)[C@H]3O)[C@@H](O)[C@H](N)C[C@@H]2N)O[C@@H]1CO — IC50 (ribosome with mitochondrial A site; luciferase translation, cell-free translation): 195 ± 57.2 µg/mL
CC(=O)O[C@@H]1C[C@@H](C)O[C@H]2O[C@@H]3C[C@@H]4CC[C@@H]5[C@H](CC[C@]6(C)[C@@H](C7=CC(=O)OC7)CC[C@]56O)[C@@]4(C)C[C@H]3O[C@]21O — worm number (Schistosoma mansoni; mouse, chronic infection; oral, 10 mg/kg single dose, males): 7 ± 1.4
COC(=O)C1=CO[C@@H](OC(C)=O)[C@@H]2C(Cn3cc(C4(O)CCCC4)nn3)=CC[C@H]12 — viability (SK-N-SH; neuroprotection, MTT; 0.6 µM, 24 h, added: 250 µM H2O2): 63.4 ± 0.2%
CC[C@H](C)[C@H](NC(=O)CNC(=O)CNC(=O)[C@@H](NC(=O)[C@@H](N)CCCNC(=N)N)[C@@H](C)CC)C(=O)N[C@@H](CC(C)C)C(=O)N[C@@H](CCCCN)C(=O)N[C@H](C(=O)N[C@@H](CC(C)C)C(=O)N[C@@H](CCCCN)C(=O)N[C@@H](CCCCN)C(=O)N[C@H](C(=O)N[C@@H](CC(C)C)C(=O)N1CCC[C@H]1C(=O)N[C@@H](CCCCN)C(=O)N[C@@H](C)C(=O)N[C@H](C(=O)N[C@@H](CCCCN)C(=O)N[C@@H](C)C(=O)N[C@@H](C)C(=O)N[C@@H](C)C(=O)N[C@@H](CCC(=O)O)C(=O)N[C@@H](CCSC)C(=O)N[C@@H](C)C(=O)N1CCC[C@H]1C(=O)N1CCC[C@H]1C(=O)N[C@@H](CCC(N)=O)C(=O)N[C@@H](CC(N)=O)C(=O)N[C@@H](CCC(=O)O)C(=O)O)[C@@H](C)CC)C(C)C)[C@@H](C)CC — duration of mechanical hypersensitivity (electronic von Frey; male C57BL/6J mice, ipsilateral paw; intraplantar, 10 µL of 1.2 mM): > 60 min
CC[C@H](C)[C@H](NC(=O)[C@H](Cc1ccc(O)cc1)NC(=O)[C@@H]1CCCN1C(=O)[C@H](CCCNC(=N)N)NC(=O)[C@H](CCCNC(=N)N)NC(=O)[C@@H](NC(=O)[C@H](CCCCN)NC(=O)[C@H](CC(N)=O)NC(=O)[C@H](CCC(=O)O)NC(=O)[C@H](Cc1ccc(O)cc1)NC(=O)[C@H](CC(C)C)NC(=O)[C@@H]1CCC(=O)N1)[C@@H](C)O[C@H]1O[C@H](CO)[C@H](O)[C@H](O[C@@H]2O[C@H](CO)[C@H](O)[C@H](O)[C@H]2O)[C@H]1NC(C)=O)C(=O)N[C@@H](CC(C)C)C(=O)O — ED50 (6 Hz seizure test; CF-1 mouse; intracerebroventricular, 30 min, 32 mA corneal stimulation): 0.0004 nmol
CC1=CC(=O)C[C@@H]2[C@@H](O)C[C@H]3[C@@H]4CC[C@H](O)[C@@]4(C)CC[C@@H]3[C@@]12C — IC50 (human PBMC; T-cell proliferation, Alamar Blue; 48 h, added: phytohemagglutinin-L 7.5 µg/mL): 4.4 ± 0.01 µg/mL
COC(=O)C1=CO[C@@H](O)[C@@H]2C(Cn3cc(C4(O)CCCCC4)nn3)=CC[C@H]12 — viability (SK-N-SH; neuroprotection, MTT; 0.075 µM, 24 h, added: 250 µM H2O2): 72.5 ± 2.5%
NC[C@@H]1O[C@H](O[C@H]2[C@@H](O)[C@H](O[C@@H]3[C@@H](O)[C@H](N)C[C@H](N)[C@H]3O[C@H]3O[C@H](CO)[C@@H](OCC(O)CO)[C@H](O)[C@H]3N)O[C@@H]2CO)[C@H](N)[C@@H](O)[C@@H]1O (stereo partly drawn) — IC50 (ribosome with mitochondrial A1555G A site; luciferase translation, cell-free translation): 24.3 ± 3.3 µg/mL
C[C@H](NC(=O)[C@H](CCC(N)=O)NC(=O)[C@H](C)NC(=O)[C@H](CCCCN)NC(=O)[C@H](CCC(N)=O)NC(=O)[C@H](C)NC(=O)[C@H](CCCCN)NC(=O)[C@H](CCC(N)=O)NC(=O)[C@H](C)NC(=O)[C@H](CCC(N)=O)NC(=O)[C@H](CCCCN)NC(=O)[C@H](C)NC(=O)[C@H](CCC(N)=O)NC(=O)[C@H](CCCCN)NC(=O)[C@H](C)NC(=O)[C@H](CCC(N)=O)NC(=O)[C@H](C)NC(=O)[C@H](CCCCN)NC(=O)[C@H](CCC(N)=O)NC(=O)[C@H](C)NC(=O)[C@H](CCCCN)NC(=O)[C@H](CO)NC(=O)[C@H](Cc1ccc(O)cc1)NC(=O)CNC(=O)CNC(=O)CN)C(=O)N[C@@H](CCCCN)C(=O)N[C@@H](CCC(N)=O)C(=O)N[C@@H](C)C(=O)N[C@@H](CCCCN)C(=O)N[C@@H](CCC(N)=O)C(=O)O — transition midpoint (circular dichroism, measured: enoxaparin concentration; PBS; 0.05 mg/mL): ~100 µM
C=CCc1cc2c(c(OC)c1OC)OCO2 — GI50 (SK-OV-3; cell growth or viability, MTT; 72 h): > 250 µM
COC(=O)C1=CO[C@@H](OC(C)=O)[C@@H]2C(Cn3cc(CCBr)nn3)=CC[C@H]12 — viability (SK-N-SH; neuroprotection, MTT; 0.6 µM, 24 h, added: 250 µM H2O2): 61.9 ± 0.2%
CSCC[C@@H]1NC(=O)[C@H](CCCNC(=N)N)NC(=O)[C@H](Cc2ccc(O)cc2)NC(=O)[C@@H](NC(=O)[C@H](CCCNC(=N)N)NC(=O)[C@H](CCCCN)NC(=O)[C@H](CC(=O)O)NC(=O)[C@H](C)N)CSSC[C@@H](C(=O)N[C@@H](CCCNC(=N)N)C(=O)N[C@@H](Cc2ccc(O)cc2)C(=O)NCC(=O)O)NC(=O)CNC(=O)[C@H](CCCCN)NC(=O)[C@H](CCCCN)NC(=O)[C@@H]2CSSC[C@H](NC1=O)C(=O)N[C@@H](CCC(N)=O)C(=O)N[C@@H](CCCNC(=N)N)C(=O)N[C@@H](Cc1ccc(O)cc1)C(=O)N[C@@H](Cc1c[nH]cn1)C(=O)N[C@@H](CCC(N)=O)C(=O)N[C@@H](CCCNC(=N)N)C(=O)N[C@@H](CCCNC(=N)N)C(=O)N[C@@H](CCC(N)=O)C(=O)N[C@@H](CCCNC(=N)N)C(=O)N[C@@H](CCCNC(=N)N)C(=O)N[C@@H](CCC(N)=O)C(=O)N2 — inhibition (Kv1.1 (human); ion current, inhibitor; concentration not given, pH 7.4): 41.2 ± 2.9%
NC[C@@H]1O[C@H](O[C@H]2[C@@H](O)[C@H](O[C@@H]3[C@@H](O)[C@H](N)C[C@H](N)[C@H]3O[C@H]3O[C@H](CO)[C@@H](OCCO)[C@H](O)[C@H]3N)O[C@@H]2CO)[C@H](N)[C@@H](O)[C@@H]1O — IC50 (ribosome with mitochondrial A1555G A site; luciferase translation, cell-free translation): 81.3 ± 17.1 µg/mL
CC[C@H](C)[C@@H]1NC(=O)[C@H](CCCCN)NC(=O)[C@H](CCCCN)NC(=O)[C@H](C)NC(=O)[C@H](C(C)C)NC(=O)[C@H](C)NC(=O)[C@H](CC(C)C)NC(=O)[C@H](CC(C)C)NC(=O)[C@H](C)NC(=O)[C@H](CCCCN)NC(=O)[C@H](CC(C)C)NC(=O)[C@H](CC(N)=O)NC(=O)[C@H](CC(C)C)NC(=O)[C@@H](N)CSSC[C@@H](C(N)=O)NC(=O)[C@H](CC(C)C)NC1=O — IC50 (H157; MTT; 24 h): 7.02 µM

Excerpt of the above:
NC[C@@H]1O[C@H](O[C@H]2[C@@H](O)[C@H](O[C@@H]3[C@@H](O)[C@H](N)C[C@H](N)[C@H]3O[C@H]3O[C@H](CO)[C@@H](OCC(O)CO)[C@H](O)[C@H]3N)O[C@@H]2CO)[C@H](N)[C@@H](O)[C@@H]1O (stereo partly drawn) — IC50 (ribosome with mitochondrial A1555G A site; luciferase translation, cell-free translation): 24.3 ± 3.3 µg/mL
CSCC[C@@H]1NC(=O)[C@H](CCCNC(=N)N)NC(=O)[C@H](Cc2ccc(O)cc2)NC(=O)[C@@H](NC(=O)[C@H](CCCNC(=N)N)NC(=O)[C@H](CCCCN)NC(=O)[C@H](CC(=O)O)NC(=O)[C@H](C)N)CSSC[C@@H](C(=O)N[C@@H](CCCNC(=N)N)C(=O)N[C@@H](Cc2ccc(O)cc2)C(=O)NCC(=O)O)NC(=O)CNC(=O)[C@H](CCCCN)NC(=O)[C@H](CCCCN)NC(=O)[C@@H]2CSSC[C@H](NC1=O)C(=O)N[C@@H](CCC(N)=O)C(=O)N[C@@H](CCCNC(=N)N)C(=O)N[C@@H](Cc1ccc(O)cc1)C(=O)N[C@@H](Cc1c[nH]cn1)C(=O)N[C@@H](CCC(N)=O)C(=O)N[C@@H](CCCNC(=N)N)C(=O)N[C@@H](CCCNC(=N)N)C(=O)N[C@@H](CCC(N)=O)C(=O)N[C@@H](CCCNC(=N)N)C(=O)N[C@@H](CCCNC(=N)N)C(=O)N[C@@H](CCC(N)=O)C(=O)N2 — inhibition (Kv1.1 (human); ion current, inhibitor; concentration not given, pH 7.4): 41.2 ± 2.9%
CC[C@H](C)[C@@H]1NC(=O)[C@H](CCCCN)NC(=O)[C@H](CCCCN)NC(=O)[C@H](C)NC(=O)[C@H](C(C)C)NC(=O)[C@H](C)NC(=O)[C@H](CC(C)C)NC(=O)[C@H](CC(C)C)NC(=O)[C@H](C)NC(=O)[C@H](CCCCN)NC(=O)[C@H](CC(C)C)NC(=O)[C@H](CC(N)=O)NC(=O)[C@H](CC(C)C)NC(=O)[C@@H](N)CSSC[C@@H](C(N)=O)NC(=O)[C@H](CC(C)C)NC1=O — IC50 (H157; MTT; 24 h): 7.02 µM
